Measured values collected from several papers.
Every numbered part comes from another study and shows a few of its results, in no order. Values joined by “and” are separate records of one study, mostly repeats; a detail may differ.
Chain of UniProt P11388 (whole entry, looked up): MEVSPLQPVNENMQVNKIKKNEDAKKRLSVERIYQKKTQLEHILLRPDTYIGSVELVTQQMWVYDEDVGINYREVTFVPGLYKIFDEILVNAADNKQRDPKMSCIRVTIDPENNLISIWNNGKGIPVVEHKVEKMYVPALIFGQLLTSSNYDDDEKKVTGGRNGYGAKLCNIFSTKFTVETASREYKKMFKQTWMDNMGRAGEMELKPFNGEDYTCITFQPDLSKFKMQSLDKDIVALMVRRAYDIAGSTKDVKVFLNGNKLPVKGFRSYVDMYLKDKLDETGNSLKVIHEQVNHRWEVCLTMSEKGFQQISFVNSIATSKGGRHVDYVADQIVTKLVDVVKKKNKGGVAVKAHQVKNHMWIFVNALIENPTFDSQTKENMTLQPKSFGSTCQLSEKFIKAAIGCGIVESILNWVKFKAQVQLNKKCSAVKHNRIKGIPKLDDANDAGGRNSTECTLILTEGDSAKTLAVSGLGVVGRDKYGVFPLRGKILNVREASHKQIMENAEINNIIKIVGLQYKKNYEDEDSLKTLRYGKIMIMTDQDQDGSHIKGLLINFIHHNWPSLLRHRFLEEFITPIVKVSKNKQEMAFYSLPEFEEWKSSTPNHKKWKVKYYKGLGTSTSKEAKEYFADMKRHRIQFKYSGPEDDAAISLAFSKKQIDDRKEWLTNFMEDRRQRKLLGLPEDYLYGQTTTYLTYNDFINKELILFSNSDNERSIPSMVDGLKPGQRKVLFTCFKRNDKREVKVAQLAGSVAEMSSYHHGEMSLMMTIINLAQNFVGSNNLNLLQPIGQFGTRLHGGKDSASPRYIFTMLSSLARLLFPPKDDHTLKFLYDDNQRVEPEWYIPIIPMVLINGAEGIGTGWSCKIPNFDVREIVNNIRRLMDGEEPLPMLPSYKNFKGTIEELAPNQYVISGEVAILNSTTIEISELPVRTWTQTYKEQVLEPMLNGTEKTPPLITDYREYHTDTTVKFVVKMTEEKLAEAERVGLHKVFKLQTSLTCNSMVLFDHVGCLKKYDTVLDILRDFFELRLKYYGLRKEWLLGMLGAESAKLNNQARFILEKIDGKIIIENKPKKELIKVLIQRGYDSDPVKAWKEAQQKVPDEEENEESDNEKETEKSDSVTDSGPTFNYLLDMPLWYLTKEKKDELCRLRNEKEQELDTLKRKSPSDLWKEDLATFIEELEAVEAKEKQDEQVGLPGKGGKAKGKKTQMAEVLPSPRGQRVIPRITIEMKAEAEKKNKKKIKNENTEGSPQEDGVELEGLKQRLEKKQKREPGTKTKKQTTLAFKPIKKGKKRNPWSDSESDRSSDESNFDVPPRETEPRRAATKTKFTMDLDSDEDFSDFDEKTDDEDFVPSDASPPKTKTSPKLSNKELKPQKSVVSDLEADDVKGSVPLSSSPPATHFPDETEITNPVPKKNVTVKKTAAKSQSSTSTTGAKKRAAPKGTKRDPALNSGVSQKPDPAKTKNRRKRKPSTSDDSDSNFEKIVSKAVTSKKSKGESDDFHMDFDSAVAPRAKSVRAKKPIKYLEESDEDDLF
Chain of UniProt Q9UQM7 (whole entry, looked up): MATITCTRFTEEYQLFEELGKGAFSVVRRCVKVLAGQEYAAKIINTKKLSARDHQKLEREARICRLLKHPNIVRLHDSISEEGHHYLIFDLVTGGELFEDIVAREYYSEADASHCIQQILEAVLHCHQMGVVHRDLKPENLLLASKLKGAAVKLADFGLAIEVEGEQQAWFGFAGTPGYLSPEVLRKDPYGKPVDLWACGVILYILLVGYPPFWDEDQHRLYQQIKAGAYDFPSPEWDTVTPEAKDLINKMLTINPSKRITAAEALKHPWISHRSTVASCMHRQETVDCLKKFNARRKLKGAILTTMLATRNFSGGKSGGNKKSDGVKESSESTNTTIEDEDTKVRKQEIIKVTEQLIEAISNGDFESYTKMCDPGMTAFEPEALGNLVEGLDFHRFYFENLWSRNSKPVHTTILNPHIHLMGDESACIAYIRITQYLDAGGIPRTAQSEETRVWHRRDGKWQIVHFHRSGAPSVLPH

Study 1 — technique: universal PBM; form: double-stranded DNA, one strand shown; matrix: in vitro; tested at: not given; reading: higher = stronger binding
Target: Sal-like protein 4, full length isoform B (SALL4, Homo sapiens, UniProt Q9UJQ4-2, residues 1-616)
Notes: 8-mer, flanks averaged, mean of replicates
Construct (chain): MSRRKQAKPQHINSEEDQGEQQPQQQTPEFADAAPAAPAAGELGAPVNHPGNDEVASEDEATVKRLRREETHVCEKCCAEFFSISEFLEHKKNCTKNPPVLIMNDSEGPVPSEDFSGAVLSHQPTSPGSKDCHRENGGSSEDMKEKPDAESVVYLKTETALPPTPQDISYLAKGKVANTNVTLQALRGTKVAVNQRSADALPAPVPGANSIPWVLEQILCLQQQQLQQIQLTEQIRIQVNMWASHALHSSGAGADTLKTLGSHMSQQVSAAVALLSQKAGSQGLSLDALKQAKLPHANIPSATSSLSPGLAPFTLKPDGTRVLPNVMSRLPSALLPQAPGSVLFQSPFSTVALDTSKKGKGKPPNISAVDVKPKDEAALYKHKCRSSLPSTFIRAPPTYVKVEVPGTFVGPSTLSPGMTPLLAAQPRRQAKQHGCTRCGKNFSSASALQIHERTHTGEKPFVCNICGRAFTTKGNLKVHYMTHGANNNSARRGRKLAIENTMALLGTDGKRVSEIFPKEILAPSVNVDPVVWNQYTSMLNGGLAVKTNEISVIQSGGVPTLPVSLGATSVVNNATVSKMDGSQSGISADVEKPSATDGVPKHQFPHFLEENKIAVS
With `GAAGAACC` the E-score was -0.24.
`GTCAGGTA` gave an E-score of -0.116.
With `CCGCTAGG` the E-score was -0.176.
For `TGTTCCAA`, the E-score was 0.111.
`ATTCCAAC` has an E-score of 0.0436.
With `TCCCACCA` the E-score was -0.213.
`AAATGAGG` gave an E-score of 0.106.
`AAACTGCG` gave an E-score of -0.124.

Study 2 — technique: phase 2a clinical trial; measured: injury and poisoning (SOC); host: idiopathic pulmonary fibrosis patients
SMILES: CC(C)n1cnc(-c2ccc(F)cc2)c1-c1ncc(C(=O)Nc2ccc(N3CCN(C)CC3)cc2)[nH]1
For dose not given, grade 5, all drug arms: “patients with TEAEs” read 0%.
The “patients with TEAEs” was 0% (dose not given, grade 2, all drug arms).
For 60 mg once daily, grade 4 maximum intensity: “patients with TEAEs” read 0%.
For 30 mg once daily, grade 1 maximum intensity: “patients with TEAEs” read 0%.
The “patients with TEAEs” was 0% (dose not given, grade 4, all drug arms).

Study 3 — cell line: HEK-293T; effect on: pseudovirus infection; technique: FDA-approved drug library screen; organism: VSV pseudotyped with SARS-CoV-2 spike; tested at: 10 µM; time: 16 h; relative to: vehicle-treated
`NC(=O)CC[C@H](N)C(=O)O` has a GFP-positive cells of 79.2%.
`O=C(O)c1cc(=O)c2c(OCC(O)COc3cccc4oc(C(=O)O)cc(=O)c34)cccc2o1` gave a GFP-positive cells of 76.1%.
The GFP-positive cells of `CNCCCN1c2ccccc2CCc2ccccc21` is reported as 83.2%.
`Cc1[nH]c(=O)c(C#N)cc1-c1ccncc1` gave a GFP-positive cells of 77.7%.

Study 4 — action: inhibitor; tested at: 20 µM
Target: Replicase polyprotein 1ab, nsp13 helicase (rep, Severe acute respiratory syndrome coronavirus 2, UniProt P0DTD1)
The inhibition of `O=C(Nc1ccncc1)C(=O)c1cn(Cc2ccc(Cl)cc2)c2ccccc12` is reported as -3.27%.
For `CN1CCC(Nc2ncc3ncnc(Nc4ccc(F)c(Cl)c4)c3n2)CC1`, the inhibition was 8.51%.
With `CCC(=O)NS(=O)(=O)c1ccc(-c2c(-c3ccccc3)noc2C)cc1` the inhibition was -5.11%.
The inhibition of `CC(C(=O)O)c1ccc(C(=O)c2cccs2)cc1` (stereo not shown) is reported as 8.92%.
The inhibition of `CC(C)(N)c1ncc(-c2ccc(OC(F)(F)F)cc2)[nH]1` is reported as 5.18%.
`O=C(CCCCCCC(=O)Nc1cccnc1)NO` gave an inhibition of 0.03%.
The inhibition of `CC(=O)O[C@H]1CC[C@@]2(C)C(=CC[C@@H]3[C@@H]2CC[C@]2(C)C(c4cccnc4)=CC[C@@H]32)C1` is reported as 3.13%.
For `CC(=O)C(=O)O`, the inhibition was 1.72%.
`Oc1cc2c(cc1O)C(c1ccccc1)CNCC2` (stereo not shown) gave an inhibition of 5.71%.
For `C/C=C1\NC(=O)[C@H]2CSSCC/C=C/[C@H](CC(=O)N[C@H](C(C)C)C(=O)N2)OC(=O)[C@H](C(C)C)NC1=O`, the inhibition was 5.14%.
With `CC1=C[C@H](O)CC(C)(C)[C@H]1/C=C/C(C)=C/C=C/C(C)=C/C=C/C=C(C)/C=C/C=C(C)/C=C/C1=C(C)C[C@@H](O)CC1(C)C` the inhibition was 6.06%.
`Oc1ccc(CC2NCCc3cc(O)c(O)cc32)cc1` (stereo not shown) gave an inhibition of 0.61%.
`COc1ccc(-c2coc3cc(O)ccc3c2=O)cc1` has an inhibition of 1.33%.
`CCN(C)C(=O)Oc1cccc([C@H](C)N(C)C)c1` has an inhibition of -0.25%.
With `Cc1ncc(CO)c(C=O)c1O` the inhibition was 6.36%.
`FCc1ccc(OCCOc2ccc(Cl)cc2Cl)c(Cl)n1` has an inhibition of -3.4%.
With `CC1(C)O[C@@H]2[C@@H](CO[C@@]3(COS(N)(=O)=O)OC(C)(C)O[C@@H]23)O1` the inhibition was 4.46%.
With `CC(C)(C)OC(=O)N[C@H]1CCCCC/C=C\[C@@H]2C[C@@]2(C(=O)NS(=O)(=O)C2CC2)NC(=O)[C@@H]2C[C@@H](OC(=O)N3Cc4cccc(F)c4C3)CN2C1=O` the inhibition was 5.54%.
`COc1ccc2c(c1)-c1nn(CCCN(C)C)c3ccc([N+](=O)[O-])c(c13)N2` has an inhibition of 37.4%.
For `CC(C)(O)C(=O)N1CCN(c2ccc(C(F)(F)F)c(C3=C(c4c[nH]c5ccccc45)C(=O)NC3=O)c2)CC1`, the inhibition was -1.06%.
The inhibition of `N=c1ccn2c(n1)O[C@H]1[C@H](O)[C@@H](CO)O[C@H]12` is reported as 4.88%.
The inhibition of `O=C(c1c(O)c2ccc(Cl)cc2[nH]c1=O)C1CC1` is reported as 1.34%.
`COc1cc(C(=O)NCc2ccc(OCCN(C)C)cc2)cc(OC)c1OC` gave an inhibition of 7.42%.
For `O=C(O)c1cc(-c2ccc(F)cc2F)ccc1O`, the inhibition was 9.96%.
With `O=C(O)c1ccccc1Nc1cccc(C(F)(F)F)c1` the inhibition was 0.12%.

Study 5 — effect on: enzyme activity; action: inhibitor; tested at: 20 µM; notes: hit confirmation
Target: Replicase polyprotein 1ab, main protease (rep, Severe acute respiratory syndrome coronavirus 2, UniProt P0DTD1)
The inhibition of `COC(=O)C1=C(C)NC(C)=C(C(=O)OC)C1c1ccccc1[N+](=O)[O-]` is reported as 75.5% and 52.7%.
The inhibition of `C=CC(=O)c1ccc2ccccc2c1` is reported as 92.3%.
`CN(C)[C@@H]1C(=O)C(C(N)=O)C(=O)[C@@]2(O)C(=O)C3C(=O)c4c(O)cccc4[C@@](C)(O)[C@H]3[C@H](O)[C@@H]12` (stereo partly shown) gave an inhibition of 33.6%.
For `CC[N+](CC)(CC)CCOc1cccc(OCC[N+](CC)(CC)CC)c1OCC[N+](CC)(CC)CC`, the inhibition was 9.1%.

Mixed results
The Cmax ratio of `COC(=O)Nc1c(N)nc(-c2nn(Cc3ccccc3F)c3ncc(F)cc23)nc1N` is reported as 0.97 (healthy men; oral, 10 mg daily, multiple dose, together with: sildenafil 100 mg; relative to: with over without sildenafil).
For `N#CCC1CCN(c2nc(Nc3ccc(N4CCC(O)CC4)cc3)c3c(=O)[nH]ncc3n2)CC1`, “IL-18 level difference” read -1.06 (vs placebo, Olink multiplex; human, serum; 20 mg, day 15, unit not given; relative to: placebo).
`COc1cc([C@@H]2c3cc4c(cc3[C@@H](O[C@@H]3O[C@@H]5CO[C@@H](C)O[C@H]5[C@H](O)[C@H]3O)[C@H]3COC(=O)[C@H]23)OCO4)cc(OC)c1O` has an inhibition of 1.3% and 82% (DNA topoisomerase 2-alpha (TOP2A, Homo sapiens, UniProt P11388); DNA decatenation, inhibitor, gel-based decatenation; 100 µM).
With `COC(=O)N(C)c1c(N)nc(-c2nn(Cc3ccccc3F)c3ncccc23)nc1N` the inhibition was -11% (Calcium/calmodulin-dependent protein kinase type II subunit alpha (CAMK2A, Homo sapiens, UniProt Q9UQM7); enzyme activity, inhibitor; 10 µM).
`O=C(C1=NN(C2CCS(=O)(=O)C2)C(=O)CC1)N1CCN(C/C=C/c2ccccc2)CC1` (stereo not shown) gave a remaining compound of 36.6% (human, microsomes or S9; 2 µM, 0.5 h).
The Cmax of `COC(=O)Nc1c(N)nc(-c2nn(Cc3ccccc3F)c3ncc(F)cc23)nc1N` is reported as 224 ng/mL (humans, plasma; oral, 10 mg, phase I DDI study, together with: rifampicin).

Repeated from above (study 2):
For dose not given, grade 5, all drug arms: “patients with TEAEs” read 0%.
The “patients with TEAEs” was 0% (dose not given, grade 2, all drug arms).
For 60 mg once daily, grade 4 maximum intensity: “patients with TEAEs” read 0%.
For 30 mg once daily, grade 1 maximum intensity: “patients with TEAEs” read 0%.
The “patients with TEAEs” was 0% (dose not given, grade 4, all drug arms).
